Assay results of several laboratories.
Each numbered part is a random draw from the data of one study; scales do not carry over between parts. ± marks the error that the study gave.

Series 1
Organism: SARS-CoV-2 Wuhan spike VSV pseudovirus
Effect on: pseudovirus entry
Tested at: 10 µM
Quantity: inhibition
O=C(NCC1CCCN(Cc2nc(-c3ccccc3)cs2)C1)c1cccs1 (centres unmarked): 90%
CC(Cn1cncn1)NC(=O)c1cc(COc2cccc(F)c2)[nH]n1 (centres unmarked): 66%
COc1ccccc1C1CCCN1C(=O)CCCn1nnnc1CN1CCOCC1 (centres unmarked): 80%
CCc1noc([C@@H]2CC(F)(F)CN2C(=O)C2CCOCC2)n1: 84%
CCCN(CCC)C(=O)c1c[nH]c2ccc(S(=O)(=O)N(C)c3ccccc3OCC)cc2c1=O: 64%
O=C(c1ccc(-n2c(-c3ccccc3)nc3cccnc32)cc1)N1CCN(c2ccccn2)CC1: 62%
CCn1nc(C)c(C(=O)Nc2cccc(NC(=O)c3ccccc3OC)c2)c1C: 91%

Single results of other studies
rep papain-like protease: Replicase polyprotein 1ab, papain-like protease (rep, Severe acute respiratory syndrome coronavirus 2, UniProt P0DTD1)
rep nsp14: Replicase polyprotein 1ab, nsp14 (rep, Severe acute respiratory syndrome coronavirus 2, UniProt P0DTD1)
rep nsp12 RdRp: Replicase polyprotein 1ab, nsp12 RdRp (rep, Severe acute respiratory syndrome coronavirus 2, UniProt P0DTD1)
CCC(CC)[C@H](NC(C)=O)[C@@H]1[C@H](O)[C@@H](C(=O)O)C[C@H]1N=C(N)N  IC50 (neuraminidase (Influenza B virus, UniProt C0LT34, I221T)): 9.9 ± 0.9 nM
CC(C)[C@H](NC(=O)OCc1ccccc1)C(=O)N[C@H](C=O)Cc1ccccc1  activity (rep papain-like protease; concentration not given, C111S mutant; relative to: positive control): 21.9%
Nc1ncnc2c1ncn2[C@@H]1O[C@H](CSCC[C@H](N)C(=O)O)[C@@H](O)[C@H]1O  ΔTm (rep nsp14; thermal shift; 31.25 µM): 8.2 °C
NC(=O)c1ccc[n+]([C@@H]2O[C@H](COP(=O)([O-])OP(=O)(O)OC[C@H]3O[C@@H](n4cnc5c(N)ncnc54)[C@H](O)[C@@H]3O)[C@@H](O)[C@H]2O)c1  BLI response (rep nsp12 RdRp; binding, biolayer interferometry; concentration not given): -0.01 nm
Cc1ccc(NS(=O)(=O)c2cccc(C(=O)NC3CCN(c4ncnc5[nH]cnc45)CC3)c2)cc1  inhibition (rep nsp14; 0.04883 µM): 3.94%
Cc1csc(-c2nnc(Nc3ccc(Oc4ncccc4-c4ccnc(N)n4)cc3)c3ccccc23)c1  BLI response (rep nsp12 RdRp; binding, biolayer interferometry; 50 µM): 0.02 nm
COC(=O)N[C@H](C(=O)N[C@@H](Cc1ccccc1)[C@@H](O)CN(Cc1ccc(-c2ccccn2)cc1)NC(=O)[C@@H](NC(=O)OC)C(C)(C)C)C(C)(C)C  activity (rep papain-like protease; concentration not given, C111S mutant; relative to: positive control): 29.4%

Some of these lines once more (series 1):
CC(Cn1cncn1)NC(=O)c1cc(COc2cccc(F)c2)[nH]n1 (centres unmarked): 66%
